Experimental data from different studies.
Parts stem from different laboratories: compare values within a part only.

Block 1
Target: Histone acetyltransferase KAT6A, both winged helices, GST fusion (KAT6A, Homo sapiens, UniProt Q92794, residues 1-181)
Method: protein binding microarray
Form: double-stranded DNA, one strand shown
Medium: in vitro
Tested at: not given
Notes: 8-mer, flanks averaged, mean of 2 arrays, mostly near background
Reference: not given
Direction: higher = stronger binding
Construct (chain): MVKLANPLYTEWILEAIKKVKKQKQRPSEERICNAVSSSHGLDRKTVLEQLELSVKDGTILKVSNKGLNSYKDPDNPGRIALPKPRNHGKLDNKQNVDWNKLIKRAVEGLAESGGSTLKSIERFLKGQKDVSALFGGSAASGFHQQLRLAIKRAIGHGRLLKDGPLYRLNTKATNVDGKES
| Strand | E-score |
| --- | --- |
| AAGGAATG | -0.0627 |
| CCAACTTA | -0.142 |
| ATTAAAAG | -0.0524 |
| AAGGTTTC | -0.0578 |
| AAACTTCA | -0.0414 |
| GTATCTAA | 0.123 |
| AACTCTGC | -0.161 |
| CCTGGTGC | -0.0973 |
| AAGGGCTA | -0.106 |
| TAGTCTAA | -0.113 |
| CGCGTAAG | 0.298 |
| ACCGCAGT | 0.0951 |
| CCTAAACC | -0.148 |
| ATACCGTA | 0.0943 |
| GCCATCAA | -0.0683 |
| ATAATTTC | 0.0055 |
| AGACGGAT | 0.155 |
| AAGTCTTC | -0.21 |
| ATGCCTGA | -0.254 |
| TGGCTACA | -0.264 |
| ACGTATAC | 0.105 |
| CGCCGTAC | 0.34 |
| ACGAACGC | 0.165 |
| AGTCAGAC | -0.123 |
| AAGGGACG | 0.0451 |

Block 2
Target: Interferon regulatory factor 7, full length, phosphomimetic (IRF7, Homo sapiens, UniProt Q92985, residues 1-503, S101K/S471D/S472D/S475D/S476D/S477D/S483D/S484D/S487D)
Method: protein-binding microarray
Form: double-stranded DNA, one strand shown
Medium: in vitro
Tested at: 250 nM
Notes: 60-bp whole probe
With: salmon DNA 0.4 mg/ml
Reference: random background probes
Direction: higher = stronger binding
All sequences stand within: GCCTAGCAC … GTCTTGATTCGCTTGACGCTGCTG
Residues (chain): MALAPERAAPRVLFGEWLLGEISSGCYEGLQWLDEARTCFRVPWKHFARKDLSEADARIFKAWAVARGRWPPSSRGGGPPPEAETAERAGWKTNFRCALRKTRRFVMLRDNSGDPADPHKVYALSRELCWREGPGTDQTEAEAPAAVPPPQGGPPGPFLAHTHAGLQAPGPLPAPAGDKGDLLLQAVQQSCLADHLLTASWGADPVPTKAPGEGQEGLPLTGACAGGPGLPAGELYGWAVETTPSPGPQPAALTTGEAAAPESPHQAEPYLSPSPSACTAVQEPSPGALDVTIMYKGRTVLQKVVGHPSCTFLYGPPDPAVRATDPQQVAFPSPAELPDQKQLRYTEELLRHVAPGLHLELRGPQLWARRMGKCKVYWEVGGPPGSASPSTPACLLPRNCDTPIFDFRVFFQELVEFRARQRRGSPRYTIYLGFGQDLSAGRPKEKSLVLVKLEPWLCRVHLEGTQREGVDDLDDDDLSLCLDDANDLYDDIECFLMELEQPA
| Strand | log fluorescence |
| --- | --- |
| GGGGAGCAGGGTGGCCCTGTGTGCTAG | -1.31 z-score |
| GACGGTTTCGGTTCGGGGACGTGCTAG | 13.3 z-score |
| GACGATCTCAGTGTCGAGACGTGCTAG | -0.316 z-score |
| TTAAATCTCAGTCTCGATTAGTGCTAG | 2.02 z-score |
| GACGTACTGGACTATCGGGACGTGCTA | -0.364 z-score |
| GACGGACAGGGTCTCGGGACGTGCTAG | -0.514 z-score |
| GACGATATCGGGACTCGAGACGTGCTA | 0.151 z-score |
| AGATATCTGCACTCTCATGTGTGCTAG | -0.327 z-score |
| TCATCTCTGCTTGTGTCACTGTGCTAG | 0.592 z-score |
| TTAGGTCTCCTCATCCTTTAGTGCTAG | 0.0483 z-score |
| TGGGCATTTTTTTTATCAATGTGCTAG | -0.702 z-score |
| GACGGTCTCGGACCGGGGACGTGCTAG | -0.023 z-score |
| TCATGTTTCTCAACCAGACTGTGCTAG | 1.2 z-score |
| TGAGGTCTCGGACTGGGTTAGTGCTAG | 0.0684 z-score |
| TCAGCTTTCCTCGTGATACTGTGCTAG | 0.592 z-score |
| TTAGGTTCCCTTTTCCTTTCGTGCTAG | 4.43 z-score |
| GACAGACTGGGTATCGGGACGTGCTAG | -0.344 z-score |
| GACGGACTACTTTTCCTGACGTGCTAG | 0.361 z-score |
| TTAGATCTCAGTCTCCATTAGTGCTAG | 0.371 z-score |

Block 3
Target: RING finger protein unkempt homolog, zinc fingers 1-6, GST-SBP tag (UNK, Homo sapiens, UniProt Q9C0B0, residues 30-357)
Method: RNA Bind-n-Seq
Form: RNA
Medium: in vitro
Tested at: not given
Notes: RNA with constant flanks, human and mouse sites, ends assumed
Reference: input RNA pool
Direction: higher = stronger binding
All sequences stand within: GGGAGUUCUACAGUCCGACGAUC … CAACAGAGGAUUGAGCAUCA
Target sequence (chain): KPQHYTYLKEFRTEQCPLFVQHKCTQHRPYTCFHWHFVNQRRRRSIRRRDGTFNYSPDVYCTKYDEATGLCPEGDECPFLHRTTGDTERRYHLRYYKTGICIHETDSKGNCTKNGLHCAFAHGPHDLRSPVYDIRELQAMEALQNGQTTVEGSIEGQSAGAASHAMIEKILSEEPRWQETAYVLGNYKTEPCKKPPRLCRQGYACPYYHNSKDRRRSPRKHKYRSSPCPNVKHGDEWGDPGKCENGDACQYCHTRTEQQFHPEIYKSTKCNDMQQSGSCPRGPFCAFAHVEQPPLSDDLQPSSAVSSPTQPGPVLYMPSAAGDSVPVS
| Strand | bound/input enrichment [ratio] |
| --- | --- |
| GGUCCUGGCCCCUUACAAGAGAGAUCUCUCUUUGAGAAAAAGAGAGGCGCUCCUCCAAGUAGCAAUAUUGAAGACUUCCAUGGACUCUUACCGAAGGGUUAUCCCCAUCUGUGCUCUAUA | 0.214 |
| CGCAUUUUGAUGGUUGGAUUGGAUGCUGCUGGCAAGACGACAAUUCUGUAUAAACUGAAAUUAGGGGAAAUAGUCACCACCAUUCCUACCAUUGGUUUUAAUGUGGAAACAGUAGAAUAU | 0.975 |
| GCCUUGUGUGCCCUUCGCUUUAUGAGGCGGAUAAUUGGACUUAAAGAUGAAUUUUAUAAUCGUUACAUCACCAAGGGAAAUCUUUUUGAGCCAGUUAUAAAUGCACUUCUGGAUAAUGGA | 0.283 |
| AAUGCCAGUGUGAUAAUGCAAGUCCCAGAGAGGAUCGUGGUUACAGGAAAUAAUGAAGACAUUUCAUUUUCAAGACCAGCAGAUCUUGACCUUAUCCAGUCCACUCCCUUUAAACCUCUG | 0.166 |
| UAUCUUAAUGACUUGGACCGCGUAGCUGACCCUGCCUACCUGCCUACGCAACAAGAUGUGCUUAGAGUUCGAGUCCCCACCACAGGGAUCAUCGAAUACCCCUUUGACUUACAAAGUGUC | 0.201 |
| GGAAUAUUAGGACUGAGGCAACACCUAGGGACACCAAGUGAUGAAGAUAAUGAUUCCUCUUUUAGUGAUUGUCUUUCUUCUCCUUCAUCUAGUCUGCAUUUUGGAGAUUCUGAUACUGUG | 0.295 |
| UUAAUGUUUUCGAACUGCUUUGAAUACAACCCUCGUAACACAAGUGAAGCAAAAGCUGGAACUAGGCUUCAAGCAUUUUUUCAUAUUCAGGCUCAAAAGCUUGGACUCCACGUCACACCC | 0.251 |
| UUCAGAAGGCACCAGCUUUUCUCUCUGGAUCCAUUCAUCCAAAGAAAUAUGUUUGUACUAUUUUUACAAGCUUUUUAUUUUUACUUCAUCACAGGGAAGUUCAGUCCCAAGAUGGAAAUG | 0.326 |
| UAUGGCUUAAAAUGCUUUUGGAGUUUUAUUUCUCAAAUUAAAAUCUGGUCACUUGAGAUCCAUUUUGUUCUCUGGUUUAAAAGUUAAAAGGUUUCUCUUUAACAGUCUCUUCAGCAGCAA | 0.262 |
| GGGAGCUAUGAUCCACAGAAACAGCUCAUCAUUGAAGAUCCCUAUUAUGGCAAUGACUCUGACUUCGAGGUGGUGUACCAGCAAUGCCUUAGGUGCUGCAAGGCCUUCCUGGAGAAGACU | 0.0974 |
| GUGAGAGAACGCCGAGCCGUCGCCGCAGCCUCCGCCGCCGAGAAGCCCUUGUUCCCGCUGCUGGGAAGGAGAGUCUGUGCCGACAAGAUGGCGGACGGGGAGCUGAACGUGGACAGCCUC | 0.0727 |

Block 4
Target: RNA binding protein fox-1 homolog 2, RRM domain, GST-SBP tag (RBFOX2, Homo sapiens, UniProt O43251-10, residues 100-194)
Method: RNA Bind-n-Seq
Form: RNA
Medium: in vitro
Tested at: 365 nM
Notes: natural RNA segment, single round, ends assumed
Reference: no-protein control
Direction: higher = stronger binding
All sequences stand within: GGGAGUUCUACAGUCCGACGAUC … UGGAAUUCUCGGGUGCCAA
Target sequence (chain): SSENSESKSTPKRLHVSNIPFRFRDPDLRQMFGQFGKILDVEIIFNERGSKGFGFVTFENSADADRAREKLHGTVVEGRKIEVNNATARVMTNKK
| Strand | RBNS enrichment (R) |
| --- | --- |
| CCAUGCAUGAGUGGUUCUUGCACCCCUGAAUGAGGAAUGCUUCCUCUGUGACAGGCUCCUCCCCACCCCCGGAUAUCCCGGUGCUGCCAGUAGUGAGUGGACAGAUGGAA | 21.5 |
| AUGUAUUAUAAAUACCUGUAACCAAAAUCAUUUGAAGGCUUGAUAAAUUUUUAACAAAGUUUGUACAUUUUUUAUGAAAGUUACUAGUAAUGCUUUACUAAGUAGUGCAA | 0.505 |
| GAAGAAUCUGUGAACAAAUACUUGAAAAUGGGUUCAAUGUAGACUGCCAUUAUGUGUGGUCUUCCCAUUAAAUGUGAACAUUUUAAUAUGUAUGCAUUCACCUUGCCUCU | 0.277 |
| CCUUUUCAGGGUAAUCUUUGUGGCACAAACGAUAGCAUUUCCAAGCUUUAGAGUUUUCUGAAUUCCUGCGCCUUCCUGACGUGAGCCCUGAGCGAUCUUCUAUGCAGUUC | 0.327 |
| CUUCAGAGACCACGCAGCCUUCCUUCGAAGACGCACCUGCCCAGCCCAGCCCAGGGGUGCCGUGGAGGACCACCCUGGCAGAGACAUUGCUGAUCCCUGGCUUGGAGCUC | 0.3 |
| UUUAGUGAGACACUUCUGAGUACUUGCUUUUUCCUUUGACUUCUAACCAACUAAAAGAGAAGGAGGUCUUCAUGUUGAUAUUUUGCUUGGUUUUAUUUUACUGAUUUUAA | 0.547 |
| UAGACAAGAUAAAUUUUGCCUCCCCAUGAGAUUUAUAGUGCUGAAGCCCUCUGUCACUUGACACCCUUCUAGCCUUGUUGGAAGGGUUUUCAGGGAGAUGGGGGCACUAU | 0.606 |
| CGUUAAGCAGAAGAAGUCAGUAGUUAUUCUCCCAUGAACGUUCUUGUCUGUGUACAGUUUUUAGAACAUUACAAAGGAUCUGUUUGCUUAGCUGUCAACAAAAAGAAAAC | 0.447 |
| GAACAAAACAACCGAAACCAAACAAACAAAAAAAUACAAGCAUUCUGUGGUGGGUGGCAUAACAAUAAAACUUACUAAGUGGUUAUAGGAUAAACAAACAGUUAUUAGGU | 0.831 |
| UUUCAAAAACUUUUAUAUUAUGUAUUAUAAGAAGUUACAGUAGUACCAUUUUGAUUAGUCUGAAUGUUUUCAGGCCUUGAAAUAAAUUUUGACUAAGUGAUAUUUUUUCU | 0.911 |
| ACUCAACAUACUGCCUUCUAAGCUUCCCUUUUUUUGUUCAAAGCAUGAUCUUAAAGAUAUGUUUAAGUUAAUGGAUGUAAUGCAGGGUUCCUACACUGUAUUUUGGCGCA | 2.37 |
| UAAUAAGUUGCCUGUUCCAGAAGUCUAACCCUAACCCCUCUGGUUGUCUGGGACCCCUUUCUGUGCAUGGGUGCAAUGAUUUAGCCAUGGCUGUGGGCUAUCUGGGUACA | 1 |
